Measurements of several laboratories.
Lines come from different studies, so protocols differ. Several values in a cell are separate wells, animals, samples, runs or records. ± gives the spread as reported.

O=c1oc2cc(O)ccc2c2ccccc12  CSF concentration (human CSF; concentration not given, mean): not detected
Cn1cc(Nc2nccc(-c3ccc4c(c3)CN(C3COC3)CC[C@H]4NC(=O)c3cn(C(C)(C)C)nn3)n2)cn1  percent change from baseline (item: Lymphocytes count; human, clinical trial, whole blood; 50 mg twice daily, follow-up): -3.87%
N#Cc1ccc2c(c1)[C@H]1CCCN(C(=O)c3ccc4[nH]cnc4c3)[C@H]1C2  DHEA-S level (human, male; 160 mg, day 7): 8.2 µmol/L
Cc1nc(-c2ccc(OCC(C)C)c(C#N)c2)sc1C(=O)O  body weight (KM mouse, chronic hyperuricaemia model; dose not given, day 8): 28.7 g and 32 g and 27.7 g and 32.6 g and 34.1 g and 29.2 g
C=CCN1CC(=O)N2[C@@H](Cc3ccc(O)cc3F)C(=O)N(Cc3cccc(N4CC(N5CCN(CC)CC5)C4)n3)C[C@@H]2N1C(=O)NCc1ccccc1  treatment-related nausea (advanced solid tumour patients; oral, 45 mg twice daily, grade ≥3, dose-escalation): 0%
CC(=O)N[C@H]1[C@H]([C@H](O)[C@H](O)CO)OC(C(=O)O)=C[C@@H]1N=C(N)N  recovery (HPLC; HBSS; 10 µg/mL, time not given, three freeze-thaw cycles): 101%
CC[C@H](C)[C@H](NC(=O)[C@H](Cc1ccccc1)NC(=O)[C@H](CCC(=O)O)NC(=O)[C@H](CCCCNC(=O)COCCOCCNC(=O)COCCOCCNC(=O)CC[C@H](NC(=O)CCCCCCCCCCCCCCCCC(=O)O)C(=O)O)NC(=O)[C@H](C)NC(=O)[C@H](C)NC(=O)[C@H](CCC(N)=O)NC(=O)CNC(=O)[C@H](CCC(=O)O)NC(=O)[C@H](CC(C)C)NC(=O)[C@H](Cc1ccc(O)cc1)NC(=O)[C@H](CO)NC(=O)[C@H](CO)NC(=O)[C@@H](NC(=O)[C@H](CC(=O)O)NC(=O)[C@H](CO)NC(=O)[C@@H](NC(=O)[C@H](Cc1ccccc1)NC(=O)[C@@H](NC(=O)CNC(=O)[C@H](CCC(=O)O)NC(=O)C(C)(C)NC(=O)[C@@H](N)Cc1cnc[nH]1)[C@@H](C)O)[C@@H](C)O)C(C)C)C(=O)N[C@@H](C)C(=O)N[C@@H](Cc1c[nH]c2ccccc12)C(=O)N[C@@H](CC(C)C)C(=O)N[C@H](C(=O)N[C@@H](CCCNC(=N)N)C(=O)NCC(=O)N[C@@H](CCCNC(=N)N)C(=O)NCC(=O)O)C(C)C  QT change from baseline (12-lead Holter ECG; healthy humans; subcutaneous, 1.5 mg once weekly, 27 h, steady state; reference: placebo): -21.5 ms
CN[C@@H]1COc2c(S(=O)(=O)NC(=O)Nc3c4c(cc5c3CCC5)CCC4)cnn2C1  predose plasma concentration (human, plasma; oral, 900 mg twice daily, D9): 5170 ng/mL
Cc1cc(OCCOCCC(F)(F)P(=O)(O)O)ccc1CCc1cnc2c(N)nc3cc(CCC(=O)O)ccc3c2c1  AUC(tau) (human, serum; intratumoral, 600 µg every 2 weeks, cycle 1 day 1): 69.4 ng·h/mL
O=C(O)c1c(O)cccc1O  CSF concentration (human CSF; concentration not given, mean): not detected
CCn1cc(C(=O)N2CCOCC2)c(=O)c2cc(NC3Cc4ccccc4C3)cnc21  Cmax (human, fed; oral suspension, 300 mg/day twice daily, day 8, arithmetic mean): 1230 ng/mL
Cc1ccc([C@@H]2O[C@H](CO)[C@@H](O)[C@H](O)[C@H]2O)cc1Cc1ccc(-c2ccc(F)cc2)s1  urinary magnesium excretion change (Japanese type 2 diabetes patients; 200 mg, day 1, 24 h urine collection; reference: baseline): -30.2 mg
Cc1c2oc3c(C)ccc(C(=O)N[C@@H]4C(=O)N[C@H](C(C)C)C(=O)N5CCC[C@H]5C(=O)N(C)CC(=O)N(C)[C@@H](C(C)C)C(=O)O[C@@H]4C)c3nc-2c(C(=O)N[C@@H]2C(=O)N[C@H](C(C)C)C(=O)N3CCC[C@H]3C(=O)N(C)CC(=O)N(C)[C@@H](C(C)C)C(=O)O[C@@H]2C)c(N)c1=O  V2 (population PK model; human): 11 L/70 kg
CC[C@H](C)[C@H](NC(=O)[C@H](Cc1ccccc1)NC(=O)[C@H](CCC(=O)O)NC(=O)[C@H](CCCCNC(=O)COCCOCCNC(=O)COCCOCCNC(=O)CC[C@H](NC(=O)CCCCCCCCCCCCCCCCC(=O)O)C(=O)O)NC(=O)[C@H](C)NC(=O)[C@H](C)NC(=O)[C@H](CCC(N)=O)NC(=O)CNC(=O)[C@H](CCC(=O)O)NC(=O)[C@H](CC(C)C)NC(=O)[C@H](Cc1ccc(O)cc1)NC(=O)[C@H](CO)NC(=O)[C@H](CO)NC(=O)[C@@H](NC(=O)[C@H](CC(=O)O)NC(=O)[C@H](CO)NC(=O)[C@@H](NC(=O)[C@H](Cc1ccccc1)NC(=O)[C@@H](NC(=O)CNC(=O)[C@H](CCC(=O)O)NC(=O)C(C)(C)NC(=O)[C@@H](N)Cc1cnc[nH]1)[C@@H](C)O)[C@@H](C)O)C(C)C)C(=O)N[C@@H](C)C(=O)N[C@@H](Cc1c[nH]c2ccccc12)C(=O)N[C@@H](CC(C)C)C(=O)N[C@H](C(=O)N[C@@H](CCCNC(=N)N)C(=O)NCC(=O)N[C@@H](CCCNC(=N)N)C(=O)NCC(=O)O)C(C)C  heart rate change (hypoglycaemic clamp; type 2 diabetes patients; dose not given, from glucose nadir to recovery): -5.4 beats/min
Cc1cc(-c2nccc3c2ccn3CC(=O)Nc2ccc(-c3cnccn3)cn2)ccn1  respiratory thoracic mediastinal TEAEs (healthy human volunteers; oral, 5 mg once daily, 14 days, multiple ascending dose): 12.5%
CC#CC(=O)N[C@H]1CCCN(c2c(F)cc(C(N)=O)c3[nH]c(C)c(C)c23)C1  adverse events (healthy volunteers; oral, 0.3 mg once daily, 14 days, MAD phase I): 16.7%
CN(CCC(=O)O)C(=O)c1ccc2c(c1)CC[C@@H]1[C@@H]2CC[C@]2(C)C(c3cncc(F)c3)=CC[C@@H]12  indirect bilirubin change (premenopausal women, endometriosis pain, serum; 60 mg twice daily, visit 5, mean; reference: baseline): 0.61 mg/dL
C[C@@H](Nc1cc(F)cc(F)c1)c1cc(C(=O)N(C)C)cc2c(=O)cc(N3CCOCC3)oc12  related serious adverse events (item: Pneumonitis; advanced solid tumour patients; oral, dose not given, dose expansion): 0%
O=C(NCc1ccc(CN2CCCCC2)cc1)c1csc2nc[nH]c(=O)c12  EC50 (haemolysis; human red blood cells; 1 h, 37 °C): > 100 µM
O=C1c2ccncc2C(=O)c2c1[nH]c1ccccc21  tissue concentration (Sprague-Dawley rat, male, lung; oral, 5 mg/kg, 24 h): 0.002 ± 0.001 nmol/mg
CC1(C)S[C@@H]2[C@H](NC(=O)[C@H](N)c3ccc(O)cc3)C(=O)N2[C@H]1C(=O)O  heart rate (male Hartley guinea pigs, anaesthetized; intravenous, 10 mg/kg group, baseline before infusion): 217 ± 0.4 beats/min
C[C@H]1CNCCCN1S(=O)(=O)c1cccc2cncc(F)c12  adverse events (item: Pyrexia; healthy adult men; topical ocular, 1 drop per eye twice daily, 8 days): 5.6%
C[C@H]1C=C(Cc2ccccc2)C(=O)O1  KOC (FOCUS PEARL groundwater modelling; soil; geometric mean input): 68 mL/g
O=C(O)CCC(=O)O.[2H]C([2H])([2H])Oc1cc(C)c2[nH]ccc2c1CN1CC[C@@H](C2CC2)C[C@H]1c1ccc(C(=O)O)cc1  subjects with elevated cholesterol TEAE (multiple ascending dose; healthy Chinese subjects; 50 mg twice daily): 0%
O=C(CCCN1CCC(O)(c2ccc(Cl)cc2)CC1)c1ccc(F)cc1  heart rate (male Hartley guinea pigs, anaesthetized; intravenous, 0.01 mg/kg group, baseline before infusion): 226 ± 0.4 beats/min
COc1ccc2c(=O)n(C)c(-c3ccccc3)nc2c1  tissue/plasma ratio (Sprague-Dawley rat, male, bladder; oral, 30 mg/kg, 4 h; reference: bladder over plasma): 47.5
O=C1Cc2cc(CCN3CCN(c4nsc5ccccc45)CC3)c(Cl)cc2N1  heart rate (male Hartley guinea pigs, anaesthetized; intravenous, 0.3 mg/kg group, baseline before infusion): 194 ± 0.6 beats/min
CC(C)(C(=O)N1CCOc2c(C#N)cncc2C1)C(F)F  subjects with adverse event (item: Lymphadenopathy; human; oral, 20 mg twice daily, 14 days, multiple ascending dose): 0%
Cc1c(C(=O)O)ccc2c3n(nc12)[C@@H]1[C@H](C3)N(CC2CC2)[C@@]2(C(=O)Nc3cc(Cl)ccc32)[C@H]1c1cccc(Cl)c1F  MRT total (Chbb:Beagle dog, male, plasma; oral, 2 mg/kg): 3.9 h
CC[C@@H]1CN(C(=O)NCC(F)(F)F)C[C@@H]1c1cnc2cnc3[nH]ccc3n12  Q/F (population PK model; healthy, RA and CD subjects, plasma; oral, immediate-release formulation): 3.39 L/h
CC(C)NC(=O)COc1cccc(-c2nc(Nc3ccc4[nH]ncc4c3)c3ccccc3n2)c1  AUC(0-tau) (human male, plasma; oral, 200 mg once daily, day 12, fed, geometric mean, together with: dabigatran etexilate): 11000 ng·h/mL
CO[C@@H]1[C@H](O)[C@@H](CO)O[C@H]1n1c([N+](=O)[O-])nc2c(=O)[nH]c(N)nc21  nucleoside remaining fraction (depurination, RP-HPLC; citrate-phosphate buffer 0.5 mM; 255 min, pH 2, 37 °C): 0.767
CNC(=O)c1ccc(-c2cnc3ncc(Cc4ccc5ncccc5c4)n3n2)cc1F  AST increased patients (Japanese patients; oral, 400 mg, any grade): 11%
O=C(CCCCCCC(=O)Nc1ccc(CC[18F])cc1)NO  tissue uptake (athymic nu/nu male mice, LNCaP xenograft, bone; intravenous, 0.5 h): 9.6 ± 2.18 %ID/g
CNC(=O)c1ccc(-c2cnc3ncc(Cc4ccc5ncccc5c4)n3n2)cc1F  patients with adverse event (item: Constipation; gastric cancer patients; oral, 600 mg twice daily, expansion cohort, grade 3-4): 22%
CCN1/C(=C/C(C)=O)Sc2ccc(F)cc21  PR interval change (cynomolgus monkey; oral, 10 mg/kg, 4 h post-dose; reference: pre-dose): 106 ± 6.1%

Some of these lines once more:
C[C@@H](Nc1cc(F)cc(F)c1)c1cc(C(=O)N(C)C)cc2c(=O)cc(N3CCOCC3)oc12  related serious adverse events (item: Pneumonitis; advanced solid tumour patients; oral, dose not given, dose expansion): 0%
O=C(CCCN1CCC(O)(c2ccc(Cl)cc2)CC1)c1ccc(F)cc1  heart rate (male Hartley guinea pigs, anaesthetized; intravenous, 0.01 mg/kg group, baseline before infusion): 226 ± 0.4 beats/min
O=C(CCCCCCC(=O)Nc1ccc(CC[18F])cc1)NO  tissue uptake (athymic nu/nu male mice, LNCaP xenograft, bone; intravenous, 0.5 h): 9.6 ± 2.18 %ID/g
